Measurements collected from several papers.
Lines come from different studies, so protocols differ. Several values in a cell are separate wells, animals, samples, runs or records. ± marks the error that the study gave.

CO[C@H]1CC[C@H](N2C(=O)CNc3ncc(-c4ccc(C(C)(C)O)nc4)nc32)CC1
pAKT change from baseline (flow cytometry; stimulated monocytes, human, blood; 60 mg single dose, 5 h, median; relative to: baseline): -51%

COc1cccc2c1c(O)c(C(=O)N(C)c1ccc(C(F)(F)F)cc1)c(=O)n2C
serum TNF-alpha (mouse, CP model, serum; 0.154 µmol/kg, 4 weeks): decreased

O=C(NS(=O)(=O)c1ccccc1)c1cc2ccccc2n1Cc1ccc(Br)c2ccccc12
serum uric acid decrease (mouse, acute hyperuricaemia model, serum; oral, 2 mg/kg; relative to: vehicle model): 82.5%

Cc1nn(-c2nc3c(F)cc(F)cc3s2)c(O)c1C(c1ccc(C(F)(F)F)cc1)c1c(C)nn(-c2nc3c(F)cc(F)cc3s2)c1O
serum amylase activity (mouse, cerulein-induced acute pancreatitis, serum; 25 mg/kg): 52.7 mOD/min and 84.9 mOD/min and 88.9 mOD/min and 44.8 mOD/min and 136 mOD/min and 87.1 mOD/min and 142 mOD/min and 98.8 mOD/min

CN(C)C(=O)c1cc2cnc(Nc3ccc(N4CCNCC4)cn3)nc2n1C1CCCC1
median PFS2 (HR+/HER2− advanced breast cancer patients; dose not given, (neo)adjuvant hormone therapy): 30.4 months

N#Cc1ccc2c(-c3ccncc3)c(-c3ccc(F)cc3)nn2c1
log2 fold change (kinase binding, competitor, MIB/MS competition, item: MKK2; Candida albicans cell lysate; 10 µM; relative to: DMSO): 0.559

Cc1cc(C)c(CNC(=O)c2cc(Cl)c3c(c2C)O[C@@](C)([C@H]2CC[C@H](N(C)C)CC2)O3)c(=O)[nH]1
disease control rate (IWG criteria, CR or PR or SD; relapsed/refractory AITL patients; dose not given): 68%

Cc1ccc(Nc2c(F)cccc2Cl)c(CC(=O)O)c1
Vmax (bioactivation, item: dansyl glutathione adduct M6a; human; pathway 3): 4.2 pmol/min/mg protein

C[C@@H]1CCC[C@H](n2cnc(-c3cc(Cl)ccc3-n3cc(Cl)nn3)cc2=O)c2cc(ccn2)-c2c(cnn2C(F)F)NC1=O
concentration for aPTT prolongation (cynomolgus monkey plasma; IC2.5× aPTT, STA-PTT reagent): 1400 nM

N#CC[C@H](C1CCCC1)n1cc(-c2ncnc3[nH]ccc23)cn1
median inhibition (phosphoflow cytometry, item: pSTAT5; patients, patient plasma; dose not given, C1D15 steady-state trough): 46.3%

O=S(=O)(NCCNC/C=C/c1ccc(Br)cc1)c1cccc2cnccc12
two-cell embryos (embryonic development; mouse zygotes; 20 µM, 24 h post-hCG): 0%

C[C@H]1C[C@H]2CSC(N)=N[C@@]2(c2nc(NC(=O)c3ccc(OC(F)F)cn3)cs2)CO1
plasma Aβ1-40 change (healthy adults, fed, plasma; oral, 200 mg single dose, 6 h; relative to: baseline, placebo-adjusted): -77.1%

[Cl-].[Cl-].[Pt+2].[Ru+2].c1ccc(-c2nc3ccccc3nc2-c2ccccn2)nc1.c1cnc2c(c1)ccc1cccnc12.c1cnc2c(c1)ccc1cccnc12
activation enthalpy (concentration not given, second substitution step, together with: L-methionine): 10.8 ± 0.717 kcal/mol

COc1nnc2ccc(N3CCC(c4ccc(OCCN5CCN(C)C(=O)[C@H]5C)cc4)CC3)nn12
time above HEXIM1 threshold (human patients; 20 mg twice daily, 2-fold above baseline): 5.48 h

Nc1nc(C(F)(F)F)nc2c1nnn2C[C@H]1CN(Cc2nccs2)CCO1
Rankl mRNA level (RT-qPCR; Ocy454, mouse; 1 µM; relative to: 100 nM): increased

NC(=O)c1cnc2[nH]ccc2c1N[C@@H]1[C@@H]2CC3C[C@H]1C[C@@](O)(C3)C2
percent change (CD4+ memory T cells, flow cytometry; Japanese humans, peripheral blood; 200 mg single dose; relative to: baseline): 0.62%

CC1(C)CCC(CN2CCN(c3ccc(C(=O)NS(=O)(=O)c4ccc(NCC5CCOCC5)c([N+](=O)[O-])c4)c(Oc4cnc5[nH]ccc5c4)c3)CC2)=C(c2ccc(Cl)cc2)C1
EC50 (cell killing; canine blood CD3+ T cells, dog 39; 24 h): 667 nM

O=C1Nc2cc3[nH]nc(-c4ccncc4)c3cc2CN1Cc1ccccc1
partial response, best response (RECIST v1.1; human, relapsed or refractory advanced solid tumours; intravenous, 0.45 mg/kg, pooled schedules): 0%

FC(F)(F)Oc1cccc(-c2cnc3ccc(-c4ccncc4)nn23)c1
tumour size (MDA-MB-231 xenograft, NSG mouse; oral, 10 mg/kg daily, day 8; higher = larger tumour): 0.0907 a.u. and 0.04 a.u. and 0.137 a.u. and 0.172 a.u. and 0.075 a.u.

Cc1n[nH]c2ccc(-c3cc(OC[C@@H](N)Cc4ccccc4)cnc3-c3ccoc3)cc12
log2 fold change (kinase binding, competitor, MIB/MS competition, item: YAK1; Candida albicans cell lysate; 1 µM; relative to: DMSO): -0.0276

CC(C)c1c(C(=O)Nc2ccccc2)c(-c2ccccc2)c(-c2ccc(F)cc2)n1CC[C@@H](O)C[C@@H](O)CC(=O)O
plasma PCSK9 change (ELISA; cynomolgus monkey, female, plasma; 40 mg/kg or 25 mg/kg, day 86; relative to: pretreatment): 316%

C[C@@H](NC(=O)N1C(=O)[C@H](Cc2ccnc(N)c2)[C@H]1C(=O)O)C1CCCCC1
ACT AUEC (human; iv infusion, 2.25 mg/kg/h, 24 h, unit not given; relative to: baseline): 120

CC(C)C[C@H](NC(=O)[C@@H](Cc1c[nH]c2ccccc12)NC(=O)[C@H](Cc1ccc(O)cc1)NC(=O)[C@H](CO)NC(=O)[C@H](Cc1c[nH]c2ccccc12)NC(=O)[C@H](Cc1c[nH]cn1)NC(=O)[C@@H]1CCC(=O)N1)C(=O)N[C@@H](CCCNC(=N)N)C(=O)N1CCC[C@H]1C(=O)NCC(N)=O
basal LH level (Chinese children, central precocious puberty, serum; intramuscular, 22.5 mg day 1, month 6, month 9): 0.35 IU/L

COc1cc2cc(-c3ccc(CC(=O)Nc4cc(C(C)(C)C(F)(F)F)no4)cn3)cnc2cc1OC
objective response rate (RECIST v1.1; RET-altered advanced solid tumour patients; oral, 40 mg once daily, phase I): 33%

CCCS(=O)(=O)NC(=O)c1cc2ccccc2n1Cc1ccc(C2CC2)c2ccccc12
serum uric acid decrease (mouse, acute hyperuricaemia model, serum; oral, 2 mg/kg; relative to: vehicle model): 80%

C[C@@H](O)CCOC(=O)C[C@@H](C)O
metabolite level (item: C3 acylcarnitine; human, plasma; 60 min, log2-transformed values): -1.65 ± 0.65 µmol/L

C=CC(=O)Nc1cc(Nc2nccc(Nc3cc(Cl)c(F)cc3C(C)(C)O)n2)c(OC)cc1N1CC[C@@H](N(C)C)C1
growth rate difference (mice, NCI-H2073 vs LXF 2478 xenografts; highest clinically relevant dose, unit not given; relative to: NCI-H2073 minus LXF 2478): -0.0037

NNC(=O)c1ccncc1
TNF-α level (ELISA; Mycobacterium marinum-infected mice, skin; intraduodenal, 10 mg/kg three times daily, 3 days post infection): 136 pg/mL and 182 pg/mL

CC(C)(C)S(=O)(=O)NC(=O)c1cc2ccccc2n1Cc1ccc(Br)c2ccccc12
serum uric acid (mouse, acute hyperuricemia model; dose not given): 458 µM and 404 µM and 440 µM

[Cl-].[Cl-].[Pt+2].[Ru+2].c1ccc(-c2nccnc2-c2ccccn2)nc1.c1cnc2c(c1)ccc1cccnc12.c1cnc2c(c1)ccc1cccnc12
activation free energy (chloride substitution, UV-vis kinetics; aqueous buffer; pH 7.2, 35 °C, second substitution step, together with: thiourea): 20.3 ± 1.2 kcal/mol

c1ccc(-c2n[nH]cc2-c2ccnc3ccccc23)nc1
log2 fold change (kinase binding, competitor, MIB/MS competition, item: RIO2; Candida albicans cell lysate; 1 µM; relative to: DMSO): 0.937

Cc1cc([C@H]2C[C@H]3[C@@H](CF)SC(N)=N[C@@]3(c3ccc(F)cc3F)CO2)on1
brain Aβ40 level (item: Aβx-40; wild-type mouse, brain; subcutaneous, 100 mg/kg, 14 h): 2.96 ng/g

COc1ccc(S(=O)(=O)NC(=O)c2cc3ccccc3n2Cc2ccc(C3CC3)c3ccccc23)cc1
serum uric acid (male mouse, acute hyperuricaemia model, serum; oral, 2 mg/kg, 4 h): 251 ± 77.4 µM

Cc1cc(Nc2ncc(Cl)c(Nc3ccccc3S(=O)(=O)C(C)C)n2)c(OC(C)C)cc1C1CCNCC1
median progression-free survival (patients with advanced solid tumours; dose not given): 4.8 months

CC(C)NCC(O)c1ccc(O)c(O)c1 (centres unmarked)
sarcomere length (ventricular cardiomyocytes, C57BL/6 mouse; dose not given, 0.304 s): 1.72 µm

CC(=O)NCC(=O)NCC(=O)N[C@H](C(=O)N[C@@H](Cc1ccc(O)cc1)C(=O)N[C@@H](CO)C(=O)N[C@H]1CSSC[C@@H](C(=O)N[C@@H](CCCNC(=N)N)C(=O)N2CCC[C@H]2C(=O)N[C@@H](CCC(N)=O)C(=O)N[C@@H](CCCNC(=N)N)C(=O)NCC(=O)NCCC(=O)N[C@@H](CCCCNC(=O)CN(CC(=O)NCCCC[C@H](NC(=O)CCNC(=O)CNC(=O)[C@H](CCCNC(=N)N)NC(=O)[C@H](CCC(N)=O)NC(=O)[C@@H]2CCCN2C(=O)[C@H](CCCNC(=N)N)NC(=O)[C@@H]2CSSC[C@H](NC(=O)[C@H](CO)NC(=O)[C@H](Cc3ccc(O)cc3)NC(=O)[C@@H](NC(=O)CNC(=O)CNC(C)=O)[C@@H](C)O)C(=O)N[C@@H](Cc3c[nH]cn3)C(=O)N[C@@H](Cc3ccccc3)C(=O)NCC(=O)N[C@@H](C)C(=O)N[C@@H](CC(C)C)C(=O)N[C@@H]([C@@H](C)O)C(=O)N[C@@H](Cc3c[nH]c4ccccc34)C(=O)N[C@@H](C(C)C)C(=O)N2)C(N)=O)C(=O)CCN)C(N)=O)NC(=O)[C@H](C(C)C)NC(=O)[C@H](Cc2c[nH]c3ccccc23)NC(=O)[C@H]([C@@H](C)O)NC(=O)[C@H](CC(C)C)NC(=O)[C@H](C)NC(=O)CNC(=O)[C@H](Cc2ccccc2)NC(=O)[C@H](Cc2c[nH]cn2)NC1=O)[C@@H](C)O
haemoglobin (healthy BALB/c mice; subcutaneous, 0.16 mg/kg, 8 d, single dose): 144 g/L

CN[C@@H]1COc2c(S(=O)(=O)NC(=O)Nc3c4c(cc5c3CCC5)CCC4)cnn2C1
inhibition (item: IL-18; human participants, whole blood ex vivo; 900 mg single dose, 48 h, IL-18, circulating, adjusted for, together with: LPS/ATP; relative to: baseline): 50.7%

CC(=O)O[C@H]1C(=O)[C@@]2(C)[C@H]([C@H](OC(=O)c3ccccc3)[C@]3(O)C[C@H](OC(=O)[C@H](O)[C@@H](NC(=O)c4ccccc4)c4ccccc4)C(C)=C1C3(C)C)[C@]1(OC(C)=O)CO[C@@H]1C[C@@H]2O
tumour volume (rats, DMBA-induced mammary tumours; dose not given, day 21): 0.17 ± 0.03 cm3

COc1ccc(S(=O)(=O)NC(=O)c2cc3ccccc3n2Cc2ccc(Br)c3ccccc23)cc1
serum uric acid (mouse, acute hyperuricemia model; dose not given): 1190 µM

OC(CCN1CCCCC1)(c1ccccc1)C1CC2C=CC1C2 (centres unmarked)
change in EEG Beta3-power Fz-Cz (resting-state EEG; healthy elderly humans; oral, 2 mg, eyes open, LS mean; relative to: baseline): 3.4%

O=C(O)CNC(=O)Cc1ccccc1
sarcomere length (ventricular cardiomyocytes, C57BL/6 mouse; dose not given, 0.784 s): 1.71 µm

c1ccc(-c2cc(-c3ccccc3)n(Cn3ccnc3)n2)cc1
wound size (rat, STZ-nicotinamide diabetic; 75 mg/kg, 72 h, full-thickness excision wound): 18.1 mm

O=P(O)(O)C(Cl)(Cl)P(=O)(O)O
GFAP-positive area (Mus musculus, sham-operated, hippocampal fissure; concentration not given, day 7; relative to: total area): 3.45% and 4.23%

CSCCNc1nc(SCCC(F)(F)F)nc2c1ncn2[C@@H]1O[C@H](COP(=O)(O)OP(=O)(O)C(Cl)(Cl)P(=O)(O)O)[C@@H](O)[C@H]1O
high residual platelet reactivity (ADP-induced platelet aggregation, Multiplate aggregometry; human patients, whole blood; dose not given, 2 h, AUC above 46; relative to: patients): 14.3%

C=CCn1c(=O)c2cnc(Nc3ccc(N4CCN(C)CC4)cc3)nc2n1-c1ccc2c(n1)[C@@](O)(CC)CC2
tumour volume difference (LS-411N xenograft, BALB/c nude mice; oral, 80 mg/kg once daily x 19, day 18): 407 ± 22 mm3

CCc1c(C)nc(-c2ccc(Cl)s2)nc1Nc1ccc(CC(=O)O)cc1
collagen content (Sirius red staining; C57BL/6J mouse, MCD diet MASH model, liver; intraperitoneal, 0.3 mg/kg daily, MCD diet 6 weeks, dosed final two weeks; relative to: untreated): decreased

C[C@H](Oc1ccc(Br)cc1-c1ccon1)C(=O)O
difference from placebo (first response peak; human, tibialis anterior muscle; 800 mg, 30 Hz, single ascending dose): -3.8%

Excerpt of the above:
O=C(NS(=O)(=O)c1ccccc1)c1cc2ccccc2n1Cc1ccc(Br)c2ccccc12
serum uric acid decrease (mouse, acute hyperuricaemia model, serum; oral, 2 mg/kg; relative to: vehicle model): 82.5%

Cc1nn(-c2nc3c(F)cc(F)cc3s2)c(O)c1C(c1ccc(C(F)(F)F)cc1)c1c(C)nn(-c2nc3c(F)cc(F)cc3s2)c1O
serum amylase activity (mouse, cerulein-induced acute pancreatitis, serum; 25 mg/kg): 52.7 mOD/min and 84.9 mOD/min and 88.9 mOD/min and 44.8 mOD/min and 136 mOD/min and 87.1 mOD/min and 142 mOD/min and 98.8 mOD/min

CN(C)C(=O)c1cc2cnc(Nc3ccc(N4CCNCC4)cn3)nc2n1C1CCCC1
median PFS2 (HR+/HER2− advanced breast cancer patients; dose not given, (neo)adjuvant hormone therapy): 30.4 months

N#Cc1ccc2c(-c3ccncc3)c(-c3ccc(F)cc3)nn2c1
log2 fold change (kinase binding, competitor, MIB/MS competition, item: MKK2; Candida albicans cell lysate; 10 µM; relative to: DMSO): 0.559

Cc1cc(C)c(CNC(=O)c2cc(Cl)c3c(c2C)O[C@@](C)([C@H]2CC[C@H](N(C)C)CC2)O3)c(=O)[nH]1
disease control rate (IWG criteria, CR or PR or SD; relapsed/refractory AITL patients; dose not given): 68%
